Results gathered from unrelated publications.
Protocols differ between the studies behind these lines. Several values in a cell are separate wells, animals, samples, runs or records. ± marks the error that the study gave.
OPRK1: Kappa-type opioid receptor (OPRK1, Homo sapiens, UniProt P41145)
UniProt P41145, sequence (whole entry, looked up): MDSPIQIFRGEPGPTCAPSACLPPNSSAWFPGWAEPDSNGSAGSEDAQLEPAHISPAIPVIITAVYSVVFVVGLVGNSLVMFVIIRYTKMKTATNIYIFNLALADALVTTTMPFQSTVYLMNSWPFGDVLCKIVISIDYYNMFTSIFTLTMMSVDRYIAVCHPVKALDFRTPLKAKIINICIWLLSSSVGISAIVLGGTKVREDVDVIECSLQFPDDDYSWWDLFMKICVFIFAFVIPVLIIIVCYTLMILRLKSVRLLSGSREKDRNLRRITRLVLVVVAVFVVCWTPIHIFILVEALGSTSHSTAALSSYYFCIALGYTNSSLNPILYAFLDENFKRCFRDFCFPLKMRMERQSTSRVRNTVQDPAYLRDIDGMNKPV
UniProt P35372, sequence (whole entry, looked up): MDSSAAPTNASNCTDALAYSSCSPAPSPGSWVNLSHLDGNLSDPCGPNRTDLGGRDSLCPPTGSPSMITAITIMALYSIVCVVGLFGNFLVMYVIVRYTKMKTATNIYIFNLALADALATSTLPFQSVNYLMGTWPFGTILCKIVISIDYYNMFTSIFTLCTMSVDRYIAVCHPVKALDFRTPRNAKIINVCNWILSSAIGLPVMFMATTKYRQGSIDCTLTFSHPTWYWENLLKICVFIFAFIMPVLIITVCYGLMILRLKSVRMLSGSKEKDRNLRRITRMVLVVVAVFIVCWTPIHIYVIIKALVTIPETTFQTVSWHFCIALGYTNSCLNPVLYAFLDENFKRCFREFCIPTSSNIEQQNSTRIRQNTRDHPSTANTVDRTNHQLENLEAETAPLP

| Structure (SMILES) | target or system | assay | system | conditions | scale | quantity | value |
| --- | --- | --- | --- | --- | --- | --- | --- |
| COCCCn1ccn2cc(C(=O)NCc3ccc(F)cc3F)c(=O)c(O)c2c1=O | human immunodeficiency virus 1 | single-round vector infection | integrase G140S/Q148H | – | – | EC50 | 129 ± 19.5 nM |
| CC(C)C[C@H](NC(=O)[C@H](CO)NC(=O)[C@H](CCCCN)NC(=O)[C@H](CC(C)C)NC(=O)[C@H](C)NC(=O)[C@H](CCCCN)NC(=O)[C@H](CCC(=O)O)NC(=O)CNC(=O)[C@H](CC(C)C)NC(=O)[C@H](CC(N)=O)NC(=O)[C@@H]1CCCN1C(=O)[C@H](CC(C)C)NC(=O)[C@H](Cc1ccccc1)NC(=O)CNC(=O)[C@H](NC(=O)[C@@H](N)Cc1ccc(O)cc1)[C@H](C)O)C(N)=O | OPRK1 | ligand displacement, radioligand | – | pH 7.5, cell membranes | – | Ki | 20 nM |
| CC[C@H](C)C(=O)N1CCC(NC(=O)Nc2ccc(OC(F)(F)F)c(F)c2)CC1 | – | – | healthy volunteers | oral, 8 mg single dose | – | subjects with COVID-19 TEAE | 0% |
| COCCN1CCn2cc(C(=O)NCc3ccc(F)cc3F)c(=O)c(O)c2C1=O | human immunodeficiency virus 1 | single-round vector infection | integrase R263K | – | – | EC50 | 5.5 ± 0.4 nM |
| Cc1cc(/C=C/C#N)cc(C)c1-n1cnc2cnc(Nc3ccc(C#N)cc3)nc21 | HIV-1 | viral replication, single-round infection | RT mutant G190A | – | – | EC50 | 0.2 ± 0.1 nM |
| CC[C@H](C)[C@H](NC(=O)[C@H](CCCCN)NC(=O)[C@H](Cc1ccc(O)cc1)NC(=O)[C@H](CCC(N)=O)NC(=O)[C@H](Cc1c[nH]cn1)NC(=O)[C@@H](NC(=O)[C@H](Cc1ccccc1)NC(=O)[C@H](Cc1c[nH]cn1)NC(=O)[C@@H](NC(=O)[C@@H](NC(=O)CNC(=O)[C@H](CCCNC(=N)N)NC(=O)[C@H](Cc1c[nH]c2ccccc12)NC(=O)[C@H](CC(C)C)NC(=O)[C@H](CO)NC(=O)[C@H](CCC(=O)O)NC(=O)[C@H](CC(C)C)NC(=O)[C@H](CCC(=O)O)NC(=O)[C@H](CC(N)=O)NC(=O)[C@H](CC(C)C)NC(=O)[C@H](CC(=O)O)NC(=O)[C@H](CO)NC(=O)[C@H](CCC(=O)O)NC(=O)[C@@H](NC(=O)[C@H](CC(C)C)NC(=O)[C@H](CCC(N)=O)NC(=O)[C@H](CCC(=O)O)NC(=O)[C@H](CCC(=O)O)NC(=O)[C@H](CC(C)C)NC(=O)[C@@H]1CCCN1C(=O)[C@@H](N)Cc1ccccc1)[C@@H](C)O)[C@@H](C)O)[C@@H](C)O)C(C)C)C(=O)N[C@@H](CCSC)C(=O)N1CCC[C@H]1C(=O)N[C@@H](Cc1ccccc1)C(=O)N[C@@H](CCCNC(=N)N)C(=O)N[C@@H](CCCCN)C(=O)N[C@@H](CC(C)C)C(=O)N[C@H](C(=O)N[C@@H](Cc1ccccc1)C(=O)N[C@@H](CCCCN)C(=O)N[C@@H](CCCNC(=N)N)C(=O)N[C@@H](CCCNC(=N)N)C(=O)N[C@@H](CCCCN)C(=O)N[C@@H](CC(N)=O)C(N)=O)C(C)C | Pseudomonas aeruginosa | broth microdilution | ATCC 27853 | – | – | MIC | > 50 µM |
| CC[C@H](C)[C@@H]1NC(=O)[C@H](CC(=O)O)NC(=O)[C@H]([C@@H](C)O)NC(=O)[C@@H]2CSSC[C@@H]3NC(=O)[C@H](CC(C)C)NC(=O)[C@H](CC(N)=O)NC(=O)[C@H](CC(C)C)NC(=O)[C@H](CCCNC(=N)N)NC(=O)[C@H](Cc4ccc(O)cc4)NC(=O)[C@H](CC(N)=O)NC(=O)[C@H](CCSC)NC(=O)[C@H](CO)NC(=O)[C@H]([C@@H](C)O)NC(=O)[C@H](CCCNC(=N)N)NC(=O)[C@H](CSSC[C@H](NC(=O)[C@H]([C@@H](C)O)NC(=O)[C@H](CCCCN)NC(=O)[C@H](CCCNC(=N)N)NC3=O)C(=O)NCC(=O)N[C@@H](CO)C(=O)N[C@H](C(=O)O)CSSC[C@H](NC(=O)[C@@H](NC(=O)[C@@H](N)CCCNC(=N)N)[C@@H](C)O)C(=O)N[C@@H](CCCCN)C(=O)N[C@@H](CC(=O)O)C(=O)N[C@@H](CC(C)C)C(=O)N[C@@H]([C@@H](C)CC)C(=O)N3CCC[C@H]3C(=O)N[C@@H](C(C)C)C(=O)N[C@@H](CO)C(=O)N[C@@H](CCC(=O)O)C(=O)N2)NC(=O)[C@H](CCCNC(=N)N)NC1=O | KcsA-Shaker channel | two-electrode voltage clamp | Xenopus oocytes | 0 mV | – | kon | 380000 ± 50000 M⁻¹ s⁻¹ |
| O=C(NCc1ccc(F)cc1F)c1cn2ccn(CCCCCO)c(=O)c2c(O)c1=O | human immunodeficiency virus 1 | single-round vector infection | integrase N155H | – | – | EC50 | 33.3 ± 8.8 nM |
| Cc1ccc(NS(=O)(=O)c2c(C(=O)N3CCCCCC3)c(C)n(C)c2C)c(Cl)c1 | Vaccinia virus | viral infection | HaCaT | 0.015 µM, 36 h | reference: untreated | infection | 104% and 89.5% and 97.2% |
| Cc1cc(/C=C/C#N)cc(C)c1Nc1nc(Nc2ccc(C#N)cc2)ncc1N | HIV-1 | viral replication, single-round infection | RT mutant L100I | – | – | EC50 | 0.1 ± 0.03 nM |
| CCCCCCCCCCCCCCCC(=O)N[C@@H](CCC(=O)NCCOCCOCCC(=O)NCCOCCOCCC(=O)NCCCC[C@H](NC(=O)[C@H](CC(=O)O)NC(=O)[C@H](CC(C)C)NC(=O)[C@H](Cc1ccc(O)cc1)NC(=O)[C@H](CCCCN)NC(=O)[C@H](CO)NC(=O)[C@H](Cc1ccc(O)cc1)NC(=O)[C@H](CC(=O)O)NC(=O)[C@H](CO)NC(=O)[C@@H](NC(=O)[C@H](Cc1ccccc1)NC(=O)[C@@H](NC(=O)CNC(=O)[C@H](CCC(N)=O)NC(=O)[C@@H](CO)NC(=O)[C@@H](N)Cc1c[nH]cn1)[C@@H](C)O)[C@@H](C)O)C(=O)N[C@@H](CCCNC(=N)N)C(=O)N[C@@H](CCCNC(=N)N)C(=O)N[C@@H](C)C(=O)N[C@@H](CCC(N)=O)C(=O)N[C@@H](CC(=O)O)C(=O)N[C@@H](Cc1ccccc1)C(=O)N[C@H](C(=O)N[C@@H](CCC(N)=O)C(=O)N[C@@H](Cc1c[nH]c2ccccc12)C(=O)N[C@@H](CC(C)C)C(=O)N[C@@H](CC(C)C)C(=O)N[C@@H](CC(N)=O)C(=O)N[C@H](C(=O)NCC(=O)NCC(=O)N1CCC[C@H]1C(=O)N[C@@H](CO)C(=O)N[C@@H](CO)C(=O)NCC(=O)N[C@@H](C)C(=O)N1CCC[C@H]1C(=O)N1CCC[C@H]1C(=O)N1CCC[C@H]1C(=O)N[C@@H](CO)C(N)=O)[C@@H](C)O)C(C)C)C(=O)O | – | refers to: AST | Sprague-Dawley rat, female | subcutaneous, 500 µg/kg once daily, 14 days | – | serum enzyme activity | 104 ± 36 U/L |
| CC(C)C[C@H](NC(=O)[C@H](CO[C@@H]1O[C@H](CO)[C@@H](O)[C@H](O)[C@H]1O)NC(=O)[C@H](CCCCN)NC(=O)[C@H](CC(C)C)NC(=O)CNC(=O)[C@H](CCCCN)NC(=O)[C@H](CCC(=O)O)NC(=O)[C@H](C)NC(=O)[C@H](CC(C)C)NC(=O)[C@H](CC(N)=O)NC(=O)[C@@H]1CCCN1C(=O)[C@H](CC(C)C)NC(=O)[C@H](Cc1ccccc1)NC(=O)CNC(=O)[C@H](NC(=O)[C@@H](N)Cc1ccc(O)cc1)[C@H](C)O)C(N)=O | OPRK1 | ligand displacement, radioligand | – | pH 7.5, cell membranes | – | Ki | 6.3 nM |
| CC[C@H](C)[C@H](NC(=O)[C@H](CCCCN)NC(=O)[C@H](CCCCN)NC(=O)[C@H](CC(C)C)NC(=O)[C@H](Cc1c[nH]c2ccccc12)NC(=O)CN)C(=O)NCC(=O)N[C@@H](CCCCN)C(=O)N[C@@H](CCCCN)C(=O)N[C@H](C(=O)N[C@@H](CCC(=O)O)C(=O)N[C@@H](CCCNC(=N)N)C(=O)N[C@H](C(=O)NCC(=O)N[C@@H](CCC(N)=O)C(=O)N[C@@H](Cc1c[nH]cn1)C(=O)N[C@H](C(=O)N[C@@H](CCCNC(=N)N)C(=O)N[C@@H](CC(=O)O)C(=O)N[C@@H](C)C(=O)N[C@H](C(=O)N[C@H](C(=O)N[C@@H](CCC(N)=O)C(=O)N[C@H](C(=O)N[C@H](C(=O)NCC(=O)N[C@H](C(=O)N[C@@H](C)C(=O)N[C@@H](CCC(N)=O)C(=O)N[C@@H](CCC(N)=O)C(=O)N[C@@H](C)C(=O)N[C@@H](C)C(=O)N[C@@H](CC(N)=O)C(=O)N[C@H](C(=O)N[C@@H](C)C(=O)N[C@@H](C)C(=O)N[C@H](C(=O)N[C@@H](CC(C)C)C(=O)N[C@@H](CCCCN)C(N)=O)[C@@H](C)O)C(C)C)C(C)C)[C@@H](C)CC)[C@@H](C)O)[C@@H](C)CC)[C@@H](C)O)[C@@H](C)O)C(C)C)[C@@H](C)CC | Escherichia coli, Acinetobacter baumannii | broth microdilution | – | 150 mM NaCl, 10% human serum | – | MIC | 0.031 µg/mL |
| Cc1cc(O)cc(C)c1C[C@H](N)C(=O)NCC(=O)NCC(=O)N[C@@H](Cc1ccccc1)C(=O)N[C@H](C(=O)NCC(=O)N[C@@H](C)C(=O)N[C@@H](CCCNC(=N)N)C(=O)N[C@@H](CCCCN)C(=O)N[C@@H](CO)C(=O)N[C@@H](C)C(=O)N[C@@H](CCCNC(=N)N)C(=O)N[C@@H](CCCCN)C(N)=O)[C@@H](C)O | Mu-type opioid receptor (OPRM1, Homo sapiens, UniProt P35372) | G-protein interaction, agonist, BRET, refers to: Gβ1 | SH-SY5Y cell membranes | 15 min, room temperature | – | EC50 | 1.58 nM |
| Nc1ccn(C2CCC(OC(C(=O)O)P(=O)(O)O)C2)c(=O)n1 (racemic) | HIV-1 reverse transcriptase K70Q | enzyme activity, inhibitor | – | with: poly(rI)·oligo(dC), [3H]dCTP | reference: mutant over wild type | fold resistance | 0.3 fold |
